# Results gathered from unrelated publications.
# Numbered parts are unrelated; each lists some results of a single study. Several values in a cell are separate wells, animals, samples, runs or records.
# Sequence of UniProt P08922 (whole entry, looked up): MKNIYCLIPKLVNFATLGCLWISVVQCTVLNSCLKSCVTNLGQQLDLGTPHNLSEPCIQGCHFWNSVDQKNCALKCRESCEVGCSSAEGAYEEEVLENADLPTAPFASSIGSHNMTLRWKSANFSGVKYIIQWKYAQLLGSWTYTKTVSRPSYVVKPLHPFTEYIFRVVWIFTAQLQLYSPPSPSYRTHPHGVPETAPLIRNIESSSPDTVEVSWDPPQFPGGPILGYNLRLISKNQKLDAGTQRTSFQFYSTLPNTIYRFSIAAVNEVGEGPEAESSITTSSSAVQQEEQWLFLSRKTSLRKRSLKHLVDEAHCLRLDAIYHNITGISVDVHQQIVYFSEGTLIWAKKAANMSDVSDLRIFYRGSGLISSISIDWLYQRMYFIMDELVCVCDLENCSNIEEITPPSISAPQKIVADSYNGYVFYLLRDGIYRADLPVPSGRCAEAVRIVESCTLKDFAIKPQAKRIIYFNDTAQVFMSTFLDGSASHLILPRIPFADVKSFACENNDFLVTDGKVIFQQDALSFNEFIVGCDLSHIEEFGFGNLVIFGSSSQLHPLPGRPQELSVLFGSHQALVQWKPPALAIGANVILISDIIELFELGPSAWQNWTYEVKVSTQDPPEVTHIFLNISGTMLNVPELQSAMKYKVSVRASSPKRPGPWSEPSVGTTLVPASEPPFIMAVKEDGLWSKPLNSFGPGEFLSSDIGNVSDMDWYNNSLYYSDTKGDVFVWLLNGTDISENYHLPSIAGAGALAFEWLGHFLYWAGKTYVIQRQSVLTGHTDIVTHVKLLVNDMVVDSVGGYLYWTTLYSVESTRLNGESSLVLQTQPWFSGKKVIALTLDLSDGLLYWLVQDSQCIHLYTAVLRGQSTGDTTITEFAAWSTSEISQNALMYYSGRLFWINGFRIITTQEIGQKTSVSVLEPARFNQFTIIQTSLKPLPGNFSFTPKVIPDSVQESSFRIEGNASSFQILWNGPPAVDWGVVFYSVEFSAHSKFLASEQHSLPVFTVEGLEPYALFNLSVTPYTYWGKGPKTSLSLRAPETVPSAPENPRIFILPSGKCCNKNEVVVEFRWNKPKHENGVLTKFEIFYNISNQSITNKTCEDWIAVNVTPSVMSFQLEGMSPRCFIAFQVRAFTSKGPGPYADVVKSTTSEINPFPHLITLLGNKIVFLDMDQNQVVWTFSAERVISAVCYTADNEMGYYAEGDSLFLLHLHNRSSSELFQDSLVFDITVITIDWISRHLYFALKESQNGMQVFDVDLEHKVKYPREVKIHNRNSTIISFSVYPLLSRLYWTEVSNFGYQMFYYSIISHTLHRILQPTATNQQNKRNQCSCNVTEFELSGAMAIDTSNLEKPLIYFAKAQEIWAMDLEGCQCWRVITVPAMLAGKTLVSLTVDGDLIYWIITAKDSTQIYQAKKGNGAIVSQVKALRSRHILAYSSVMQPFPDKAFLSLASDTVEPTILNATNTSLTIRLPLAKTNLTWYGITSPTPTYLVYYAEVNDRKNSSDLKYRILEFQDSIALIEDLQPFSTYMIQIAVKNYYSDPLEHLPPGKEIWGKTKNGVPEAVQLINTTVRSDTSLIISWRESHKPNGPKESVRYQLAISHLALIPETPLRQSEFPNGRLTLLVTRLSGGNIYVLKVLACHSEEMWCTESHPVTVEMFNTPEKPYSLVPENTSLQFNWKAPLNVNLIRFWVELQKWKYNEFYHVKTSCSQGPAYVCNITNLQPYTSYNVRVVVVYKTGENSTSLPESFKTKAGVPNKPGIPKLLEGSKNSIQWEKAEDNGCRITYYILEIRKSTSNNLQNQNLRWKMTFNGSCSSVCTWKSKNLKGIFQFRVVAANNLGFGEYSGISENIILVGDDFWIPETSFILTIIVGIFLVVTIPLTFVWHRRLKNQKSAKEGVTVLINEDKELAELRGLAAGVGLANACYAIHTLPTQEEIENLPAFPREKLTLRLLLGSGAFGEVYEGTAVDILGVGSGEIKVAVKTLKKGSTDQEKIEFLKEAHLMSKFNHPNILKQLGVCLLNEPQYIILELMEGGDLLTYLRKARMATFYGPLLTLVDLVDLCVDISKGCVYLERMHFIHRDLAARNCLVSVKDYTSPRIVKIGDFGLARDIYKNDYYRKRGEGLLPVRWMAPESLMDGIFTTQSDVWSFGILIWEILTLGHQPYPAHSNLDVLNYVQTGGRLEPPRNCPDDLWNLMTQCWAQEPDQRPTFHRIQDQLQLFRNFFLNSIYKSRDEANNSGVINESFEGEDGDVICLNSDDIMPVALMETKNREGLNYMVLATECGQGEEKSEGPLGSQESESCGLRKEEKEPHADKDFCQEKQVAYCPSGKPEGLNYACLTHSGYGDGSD

# Sample 1
# Cell line: mouse MPNST tumor cells
# Method: high-content nuclear imaging
# Refers to: cell number
# Concentration: 10 µM
# Time: 12 h
# Notes: mean of 2 replicates
# Reference: plate mean
# Reading: higher = more cells
Compound,nuclei count
CN(C)CCC=C1c2ccccc2COc2ccccc21,5.08 z-score
O=C(O)Cc1cc(I)c(Oc2ccc(O)c(I)c2)c(I)c1,2.29 z-score
Cc1nc(Nc2cnn(C3CCNCC3)c2)nc2c1N(C)C(=O)c1cc3ccccc3cc1N2C,-3.38 z-score
O=S(=O)(c1ccccc1)N(CC(F)(F)F)c1ccc(C(O)(C(F)(F)F)C(F)(F)F)cc1,2.89 z-score
NCCCC[C@H](N[C@@H](CCc1ccccc1)C(=O)O)C(=O)N1CCC[C@H]1C(=O)O,1.49 z-score
C=C1C(=O)O[C@H]2[C@H]1CC/C(C)=C/CC[C@@]1(C)O[C@@H]21,-3.23 z-score
O=C(O)C1=CCCN(CCON=C(c2ccccc2)c2ccccc2)C1,-0.0405 z-score
Cn1cnc([N+](=O)[O-])c1Sc1ncnc2[nH]cnc12,-2.12 z-score and -2.18 z-score

# Sample 2
# SMILES: CCC(=O)N1CCN(c2nc(OC[C@@H]3CCCN3C)nc3c2CCN(c2cccc4cccc(Cl)c24)C3)C[C@@H]1CC#N
# Observed: binding
# Action: competitor
# Method: NanoBRET
# Cells: HEK293
# KRAS Q61H: GTPase KRas (KRAS, Homo sapiens, UniProt P01116, Q61H)
# KRAS Q61R: GTPase KRas (KRAS, Homo sapiens, UniProt P01116, Q61R)
target,concentration,normalized BRET
KRAS Q61H,1.24 µM,52% and 62.6% and 48.5%
KRAS Q61R,45.7 nM,102% and 107% and 95.5%
KRAS Q61R,412 nM,102% and 105% and 93.8%
KRAS Q61H,11.1 µM,15.7% and 14% and 19.6%
KRAS Q61H,3.7 µM,30.3% and 26.7%

# Sample 3
# Compound: CCOc1cc2ncnc(Nc3cccc(Br)c3)c2cc1OCC
# Observed: enzyme activity
# Action: inhibitor
# Concentration: 0.5 µM
# Reference: control
target,remaining activity
"CDK7 (Homo sapiens, UniProt P50613)",93%
"SLK (Homo sapiens, UniProt Q9H2G2)",64.8%
"Aurora kinase A (AURKA, Homo sapiens, UniProt O14965)",110%
"PTK2B (Homo sapiens, UniProt Q14289)",95.8%
"ROS1 (Homo sapiens, UniProt P08922)",102%
"CAMK1G (Homo sapiens, UniProt Q96NX5)",97.2%
"DMPK (Homo sapiens, UniProt Q09013)",102%
"PKN2 (Homo sapiens, UniProt Q16513)",90%
"MAPK10 (Homo sapiens, UniProt P53779)",101%
"RET (Homo sapiens, UniProt P07949)",39.3%
"ROCK2 (Homo sapiens, UniProt O75116)",91.8%
"CAMK1D (Homo sapiens, UniProt Q8IU85)",102%
"NTRK3 (Homo sapiens, UniProt Q16288)",91.5%
"CSNK2A2 (Homo sapiens, UniProt P19784)",93.8%
"MAP3K8 (Homo sapiens, UniProt P41279)",106%
"MAP3K2 (Homo sapiens, UniProt Q9Y2U5)",102%
"BRSK1 (Homo sapiens, UniProt Q8TDC3)",86.1%
"HIPK3 (Homo sapiens, UniProt Q9H422)",102%
"PRKD1 (Homo sapiens, UniProt Q15139)",95.4%
"GRK5 (Homo sapiens, UniProt P34947)",104%
"DYRK4 (Homo sapiens, UniProt Q9NR20)",96.9%
"Cyclin-dependent kinase 2, with cyclin A (CDK2, Homo sapiens, UniProt P24941)",91.9%
"NEK9 (Homo sapiens, UniProt Q8TD19)",96.7%

# Sample 4
# Target: DNA polymerase theta, helicase domain (POLQ, Homo sapiens, UniProt O75417)
# Sequence of UniProt O75417 (whole entry, looked up): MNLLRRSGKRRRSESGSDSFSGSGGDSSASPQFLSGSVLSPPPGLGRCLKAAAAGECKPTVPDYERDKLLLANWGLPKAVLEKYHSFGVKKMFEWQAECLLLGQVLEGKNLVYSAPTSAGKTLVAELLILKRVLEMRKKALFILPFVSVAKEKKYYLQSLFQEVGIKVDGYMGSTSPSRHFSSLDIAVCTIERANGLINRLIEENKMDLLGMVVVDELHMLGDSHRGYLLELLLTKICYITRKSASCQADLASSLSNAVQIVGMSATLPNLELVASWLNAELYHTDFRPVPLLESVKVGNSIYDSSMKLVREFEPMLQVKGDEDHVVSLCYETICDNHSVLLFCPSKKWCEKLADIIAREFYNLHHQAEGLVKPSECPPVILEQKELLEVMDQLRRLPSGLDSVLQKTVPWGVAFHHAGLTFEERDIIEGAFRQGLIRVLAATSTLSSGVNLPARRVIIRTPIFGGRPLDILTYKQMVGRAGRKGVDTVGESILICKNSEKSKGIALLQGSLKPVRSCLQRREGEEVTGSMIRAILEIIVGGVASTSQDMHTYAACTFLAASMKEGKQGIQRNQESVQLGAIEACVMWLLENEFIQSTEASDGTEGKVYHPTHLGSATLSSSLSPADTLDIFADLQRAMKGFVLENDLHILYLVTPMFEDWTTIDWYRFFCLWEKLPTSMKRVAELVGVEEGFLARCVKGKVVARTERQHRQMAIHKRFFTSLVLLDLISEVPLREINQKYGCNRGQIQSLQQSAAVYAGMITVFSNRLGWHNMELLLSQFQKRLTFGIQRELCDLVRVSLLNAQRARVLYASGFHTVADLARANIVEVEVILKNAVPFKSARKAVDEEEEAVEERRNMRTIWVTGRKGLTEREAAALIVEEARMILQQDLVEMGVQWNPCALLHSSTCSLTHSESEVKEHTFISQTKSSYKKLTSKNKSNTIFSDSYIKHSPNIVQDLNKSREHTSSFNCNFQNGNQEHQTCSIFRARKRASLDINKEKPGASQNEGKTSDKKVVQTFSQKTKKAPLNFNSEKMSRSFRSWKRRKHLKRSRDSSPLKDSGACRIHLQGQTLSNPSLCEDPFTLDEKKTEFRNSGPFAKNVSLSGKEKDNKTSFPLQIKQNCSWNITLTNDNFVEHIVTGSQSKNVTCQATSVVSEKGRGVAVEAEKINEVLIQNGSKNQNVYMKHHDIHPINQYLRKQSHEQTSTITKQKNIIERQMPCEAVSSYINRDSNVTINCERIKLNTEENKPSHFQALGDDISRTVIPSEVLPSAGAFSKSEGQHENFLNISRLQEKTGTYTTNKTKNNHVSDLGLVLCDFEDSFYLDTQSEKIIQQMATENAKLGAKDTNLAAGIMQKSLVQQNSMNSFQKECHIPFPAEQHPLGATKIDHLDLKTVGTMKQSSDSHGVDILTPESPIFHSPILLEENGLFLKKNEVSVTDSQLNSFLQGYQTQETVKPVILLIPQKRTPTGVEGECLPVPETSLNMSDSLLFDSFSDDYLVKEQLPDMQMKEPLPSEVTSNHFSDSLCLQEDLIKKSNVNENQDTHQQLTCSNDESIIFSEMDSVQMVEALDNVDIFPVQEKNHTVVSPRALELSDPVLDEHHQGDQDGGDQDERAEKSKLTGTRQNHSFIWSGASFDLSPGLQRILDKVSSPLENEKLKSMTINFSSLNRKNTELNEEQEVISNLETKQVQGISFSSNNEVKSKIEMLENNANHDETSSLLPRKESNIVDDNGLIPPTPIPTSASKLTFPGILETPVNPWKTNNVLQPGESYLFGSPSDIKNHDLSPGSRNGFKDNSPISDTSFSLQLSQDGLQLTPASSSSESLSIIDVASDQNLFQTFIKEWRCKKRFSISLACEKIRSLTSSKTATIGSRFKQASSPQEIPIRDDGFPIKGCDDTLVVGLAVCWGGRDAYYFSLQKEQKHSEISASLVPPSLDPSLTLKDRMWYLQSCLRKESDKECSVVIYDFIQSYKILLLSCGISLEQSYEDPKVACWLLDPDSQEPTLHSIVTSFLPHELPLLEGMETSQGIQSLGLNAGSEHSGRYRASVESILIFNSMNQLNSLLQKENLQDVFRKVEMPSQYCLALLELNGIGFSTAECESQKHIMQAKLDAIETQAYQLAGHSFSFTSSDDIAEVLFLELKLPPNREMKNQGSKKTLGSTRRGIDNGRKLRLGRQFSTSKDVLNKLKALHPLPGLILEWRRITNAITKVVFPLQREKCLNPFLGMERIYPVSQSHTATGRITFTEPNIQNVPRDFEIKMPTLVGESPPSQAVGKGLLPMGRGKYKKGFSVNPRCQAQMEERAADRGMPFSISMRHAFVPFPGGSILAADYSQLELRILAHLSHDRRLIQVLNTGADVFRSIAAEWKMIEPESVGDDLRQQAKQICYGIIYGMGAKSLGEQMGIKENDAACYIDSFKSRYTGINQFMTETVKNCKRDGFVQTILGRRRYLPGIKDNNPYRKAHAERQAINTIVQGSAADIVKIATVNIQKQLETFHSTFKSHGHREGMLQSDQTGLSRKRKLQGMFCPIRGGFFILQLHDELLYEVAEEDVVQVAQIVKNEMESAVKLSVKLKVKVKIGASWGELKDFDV
# Observed: ATPase activity
# Concentration: concentration not given
# Notes: average
# With: with ssDNA
Compound,remaining activity
O=C(Nc1ccccc1C(=O)O)c1cccc(S(=O)(=O)N2CCCC2)c1,56.3%
O=C(Nc1ccccc1F)c1ccc2c(Cl)c3c(nc2c1)CCC3,80%
CC(=O)[C@]1(O)Cc2c(O)c3c(c(O)c2[C@@H](O[C@H]2C[C@H](N)[C@H](O)[C@H](C)O2)C1)C(=O)c1ccccc1C3=O,57.5% and 59.5%
O=C(O)/C(=C/c1c(C(=O)O)[nH]c2cc(Cl)cc(Cl)c12)c1ccccc1,107%
Cc1ccc(NC(=O)CSc2ncc(S(=O)(=O)c3ccc(C(C)C)cc3)c(=O)[nH]2)cc1C,77.3%
Cc1ccc(C2C=C(c3ccccc3)N=C3N=C(NS(C)(=O)=O)NN32)cc1 (stereo not drawn),90.2%
COc1ccc(C(=O)Nc2noc3ccccc23)cc1,63.1%
CC1=Nc2cc(C(=O)NCCc3ccc(Cl)cc3)ccc2Sc2ccc(C)cc21,64.9%
Cc1ccc(C(=O)Nc2ccc(S(=O)(=O)[O-])c3cc(S(=O)(=O)[O-])cc(S(=O)(=O)[O-])c23)cc1NC(=O)c1cccc(NC(=O)Nc2cccc(C(=O)Nc3cc(C(=O)Nc4ccc(S(=O)(=O)[O-])c5cc(S(=O)(=O)[O-])cc(S(=O)(=O)[O-])c45)ccc3C)c2)c1.[Na+].[Na+].[Na+].[Na+].[Na+].[Na+],2.64%
Cc1ccc(-c2n[nH]c3c2C(c2cccc(O)c2)N(c2ccc(C(=O)O)cc2)C3=O)cc1 (stereo not drawn),63.8%
C/C(O)=C(\C#N)C(=O)Nc1ccc(C(F)(F)F)cc1,67.6%
CC1(C)Cc2c(-c3ccccc3)c(-c3ccc(Cl)cc3)c(CC(=O)O)n2C1,68.3%

# For quick reference, copied from above (sample 2):
target,concentration,normalized BRET
KRAS Q61H,1.24 µM,52% and 62.6% and 48.5%
KRAS Q61R,45.7 nM,102% and 107% and 95.5%
KRAS Q61R,412 nM,102% and 105% and 93.8%
KRAS Q61H,11.1 µM,15.7% and 14% and 19.6%
KRAS Q61H,3.7 µM,30.3% and 26.7%
